Measured values from different studies.
Each numbered part is a random draw from the data of one study; scales do not carry over between parts. Several values in a cell are separate wells, animals, samples, runs or records.
UniProt Q9UKR3, sequence (whole entry, looked up): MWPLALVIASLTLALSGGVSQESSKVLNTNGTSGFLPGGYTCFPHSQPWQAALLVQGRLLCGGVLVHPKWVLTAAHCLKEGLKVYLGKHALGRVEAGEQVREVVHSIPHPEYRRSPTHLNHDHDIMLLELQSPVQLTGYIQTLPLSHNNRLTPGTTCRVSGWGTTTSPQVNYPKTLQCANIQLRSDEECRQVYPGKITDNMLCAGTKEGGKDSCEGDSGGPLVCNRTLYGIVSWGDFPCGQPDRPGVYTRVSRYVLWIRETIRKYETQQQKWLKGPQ
UniProt Q9NRR2, sequence (whole entry, looked up): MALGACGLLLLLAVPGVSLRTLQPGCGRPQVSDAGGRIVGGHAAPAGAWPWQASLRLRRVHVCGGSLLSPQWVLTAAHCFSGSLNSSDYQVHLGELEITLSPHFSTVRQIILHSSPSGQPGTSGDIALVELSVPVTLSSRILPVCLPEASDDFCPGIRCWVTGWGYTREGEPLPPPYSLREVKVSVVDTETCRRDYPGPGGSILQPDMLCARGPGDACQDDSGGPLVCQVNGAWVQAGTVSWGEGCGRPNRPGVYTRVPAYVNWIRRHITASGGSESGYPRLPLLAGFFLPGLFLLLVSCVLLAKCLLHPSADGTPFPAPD
UniProt Q9P0G3, sequence (whole entry, looked up): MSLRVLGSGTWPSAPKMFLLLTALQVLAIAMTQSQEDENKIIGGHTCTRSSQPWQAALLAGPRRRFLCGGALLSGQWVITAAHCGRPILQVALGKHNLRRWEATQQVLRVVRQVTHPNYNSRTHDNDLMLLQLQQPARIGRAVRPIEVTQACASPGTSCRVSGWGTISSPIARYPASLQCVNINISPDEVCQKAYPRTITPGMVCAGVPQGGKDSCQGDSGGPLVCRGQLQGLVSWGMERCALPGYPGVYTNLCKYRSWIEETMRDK
UniProt P03952, sequence (whole entry, looked up): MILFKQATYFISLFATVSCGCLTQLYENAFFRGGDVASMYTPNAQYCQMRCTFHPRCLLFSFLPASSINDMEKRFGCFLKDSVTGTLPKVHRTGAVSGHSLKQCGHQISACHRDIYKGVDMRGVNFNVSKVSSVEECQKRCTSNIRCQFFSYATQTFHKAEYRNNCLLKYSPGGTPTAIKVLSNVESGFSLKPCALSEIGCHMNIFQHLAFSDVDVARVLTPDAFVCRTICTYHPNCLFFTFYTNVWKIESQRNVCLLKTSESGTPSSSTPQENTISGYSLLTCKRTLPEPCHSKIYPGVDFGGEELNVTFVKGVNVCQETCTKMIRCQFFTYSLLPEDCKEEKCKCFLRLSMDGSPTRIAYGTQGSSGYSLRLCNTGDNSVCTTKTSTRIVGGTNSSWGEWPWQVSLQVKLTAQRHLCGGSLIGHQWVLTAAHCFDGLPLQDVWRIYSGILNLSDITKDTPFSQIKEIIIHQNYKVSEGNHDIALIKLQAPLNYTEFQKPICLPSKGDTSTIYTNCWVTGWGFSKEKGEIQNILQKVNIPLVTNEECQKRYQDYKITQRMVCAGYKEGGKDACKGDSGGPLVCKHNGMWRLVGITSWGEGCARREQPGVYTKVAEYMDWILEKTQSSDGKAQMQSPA

Series 1
Compound: CCOC(=O)c1ccc(OC(=O)CCCCCNC(=N)N)cc1
Measurement: IC50
Kallikrein-14 (Homo sapiens, UniProt Q9P0G3): 0.314 µM
Tryptase gamma (Homo sapiens, UniProt Q9NRR2): 0.00971 µM
Prothrombin (F2, Homo sapiens, UniProt P00734): 1.54 µM
Plasma kallikrein (KLKB1, Homo sapiens, UniProt P03952): 0.112 µM
trypsin; enzyme activity, inhibitor: 0.0125 µM
Kallikrein-13 (Homo sapiens, UniProt Q9UKR3): 13.4 µM and > 10 µM

Series 2
Organism: Sarcocystis neurona
Effect on: parasite activity
Tested at: concentration not given
Measurement: activity class
OC[C@H]1O[C@@H](n2cnc3c(N[C@H]4CCC[C@@H]4O)ncnc32)[C@H](O)[C@@H]1O: inactive
CCCCCCCCCOc1ccc2[nH]cc(CCN)c2c1: inactive
COc1ccc2[nH]cc(CCN)c2c1: inactive
CCC(COC(=O)c1cc(OC)c(OC)c(OC)c1)(c1ccccc1)N(C)C.O=C(O)/C=C\C(=O)O (stereo not drawn): inactive
COc1ccc2[nH]cc(C3=CCNCC3)c2c1: inactive
Br.COc1ccc2c(c1)[C@]13CCCC[C@@H]1[C@H](C2)N(C)CC3: inactive

Series 3
Cell line: HEK-293T-ACE2-TMPRSS2
Method: cell count
Tested at: concentration not given
Measurement: viability
C/C=C/Cn1c(=O)c2c(nc3n(CCCC)c(C)cn23)n(C)c1=O: 100%
C=C(C)C1Cc2c(ccc3c2O[C@@H]2COc4cc(OC)c(OC)cc4[C@@H]2C3=O)O1 (stereo partly drawn): 118%
O=C(CC1C(=O)NCCN1Cc1ccccc1C(F)(F)F)NCCn1cccn1 (stereo not drawn): 102%
CC(=O)c1cccc(NC(=O)c2cc3cc(N(C)S(=O)(=O)c4ccc(C)cc4)ccc3s2)c1: 70%
Cc1ccc(C2NC(=O)N(CC(=O)NC3CCCCC3)C3=C2C(=O)OC3)cc1 (stereo not drawn): 76%
O=C(NC1CC(=O)N(CCCc2ccccc2)C1)c1ccsc1 (stereo not drawn): 113%
CCN(c1ccc2sc(C(=O)Nc3ccc(C)c(Cl)c3)cc2c1)S(C)(=O)=O: 78%
O=C(Nc1nc2c(s1)CN(Cc1ccccc1)CC2)c1ccc(Cl)cc1: 76%

Other studies, line by line
CC[C@H]1C(=O)N[C@@H](CC(C)C)C(=O)N2CCC[C@@H]2C(=O)N(C)[C@@H](Cc2ccccc2)C(=O)N[C@@H](CC(C)C)C(=O)N(C)[C@H](C)C(=O)N1C — logD (pH 7.4, average): 2.17

A few entries again (series 1):
Kallikrein-14 (Homo sapiens, UniProt Q9P0G3): 0.314 µM
Tryptase gamma (Homo sapiens, UniProt Q9NRR2): 0.00971 µM
Prothrombin (F2, Homo sapiens, UniProt P00734): 1.54 µM
